# Published values collected from several papers.
# Chains of the proteins cited; added tags and fusions are not shown. Residues count along the entry.
# UniProt P37136, 32-614 limits assumed: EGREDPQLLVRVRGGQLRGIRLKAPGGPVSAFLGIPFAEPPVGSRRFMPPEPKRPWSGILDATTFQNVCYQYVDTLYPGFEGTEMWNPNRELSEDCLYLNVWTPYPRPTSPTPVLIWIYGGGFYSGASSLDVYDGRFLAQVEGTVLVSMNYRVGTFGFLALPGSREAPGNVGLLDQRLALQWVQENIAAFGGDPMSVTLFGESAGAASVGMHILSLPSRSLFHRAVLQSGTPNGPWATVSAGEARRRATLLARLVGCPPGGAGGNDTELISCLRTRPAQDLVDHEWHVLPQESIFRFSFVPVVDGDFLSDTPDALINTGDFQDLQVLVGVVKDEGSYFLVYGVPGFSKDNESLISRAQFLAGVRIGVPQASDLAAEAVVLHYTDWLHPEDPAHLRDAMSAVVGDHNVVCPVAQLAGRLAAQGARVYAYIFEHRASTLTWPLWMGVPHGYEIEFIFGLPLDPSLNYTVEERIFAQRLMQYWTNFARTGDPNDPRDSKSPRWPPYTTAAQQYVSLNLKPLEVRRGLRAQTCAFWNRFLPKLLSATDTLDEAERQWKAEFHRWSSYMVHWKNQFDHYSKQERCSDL
# UniProt P42574, whole entry, looked up: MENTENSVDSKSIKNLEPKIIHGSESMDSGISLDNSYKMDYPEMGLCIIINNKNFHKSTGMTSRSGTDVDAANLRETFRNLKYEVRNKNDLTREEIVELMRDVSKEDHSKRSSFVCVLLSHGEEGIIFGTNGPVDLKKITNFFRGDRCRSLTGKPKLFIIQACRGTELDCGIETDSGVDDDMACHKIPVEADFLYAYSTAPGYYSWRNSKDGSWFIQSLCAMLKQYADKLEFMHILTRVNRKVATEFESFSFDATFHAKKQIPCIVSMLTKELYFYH
# UniProt P30926, whole entry, looked up: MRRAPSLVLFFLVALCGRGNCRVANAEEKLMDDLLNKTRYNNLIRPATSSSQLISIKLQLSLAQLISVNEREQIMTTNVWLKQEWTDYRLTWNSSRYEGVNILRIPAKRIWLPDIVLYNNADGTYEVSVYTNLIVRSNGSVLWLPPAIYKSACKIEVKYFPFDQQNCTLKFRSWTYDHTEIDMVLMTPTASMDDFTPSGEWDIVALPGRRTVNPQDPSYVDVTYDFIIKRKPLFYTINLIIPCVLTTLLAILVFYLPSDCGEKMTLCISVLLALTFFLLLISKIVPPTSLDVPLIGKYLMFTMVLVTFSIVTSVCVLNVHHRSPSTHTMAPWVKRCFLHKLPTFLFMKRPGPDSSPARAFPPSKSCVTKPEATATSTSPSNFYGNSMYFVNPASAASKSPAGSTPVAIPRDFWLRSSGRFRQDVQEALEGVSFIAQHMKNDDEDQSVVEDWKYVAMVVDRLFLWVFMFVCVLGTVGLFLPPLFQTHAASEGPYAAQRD
# UniProt P32297, whole entry, looked up: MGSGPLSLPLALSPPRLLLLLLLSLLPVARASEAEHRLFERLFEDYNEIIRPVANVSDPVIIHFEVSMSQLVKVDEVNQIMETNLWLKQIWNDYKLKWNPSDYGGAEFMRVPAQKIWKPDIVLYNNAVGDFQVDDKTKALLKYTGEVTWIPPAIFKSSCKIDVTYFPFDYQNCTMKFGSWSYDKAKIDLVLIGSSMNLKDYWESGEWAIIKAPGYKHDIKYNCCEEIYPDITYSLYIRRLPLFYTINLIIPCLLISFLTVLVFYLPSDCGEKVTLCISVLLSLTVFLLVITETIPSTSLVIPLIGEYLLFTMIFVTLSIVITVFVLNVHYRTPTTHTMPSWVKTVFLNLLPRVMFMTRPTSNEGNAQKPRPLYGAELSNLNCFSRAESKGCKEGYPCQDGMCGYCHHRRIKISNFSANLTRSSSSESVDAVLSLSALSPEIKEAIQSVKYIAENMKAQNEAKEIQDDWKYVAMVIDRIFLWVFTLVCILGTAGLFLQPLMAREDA
# UniProt Q15825, whole entry M241L/F253L/V300I/V303I/V320I/I327V/R339S/K347N, looked up: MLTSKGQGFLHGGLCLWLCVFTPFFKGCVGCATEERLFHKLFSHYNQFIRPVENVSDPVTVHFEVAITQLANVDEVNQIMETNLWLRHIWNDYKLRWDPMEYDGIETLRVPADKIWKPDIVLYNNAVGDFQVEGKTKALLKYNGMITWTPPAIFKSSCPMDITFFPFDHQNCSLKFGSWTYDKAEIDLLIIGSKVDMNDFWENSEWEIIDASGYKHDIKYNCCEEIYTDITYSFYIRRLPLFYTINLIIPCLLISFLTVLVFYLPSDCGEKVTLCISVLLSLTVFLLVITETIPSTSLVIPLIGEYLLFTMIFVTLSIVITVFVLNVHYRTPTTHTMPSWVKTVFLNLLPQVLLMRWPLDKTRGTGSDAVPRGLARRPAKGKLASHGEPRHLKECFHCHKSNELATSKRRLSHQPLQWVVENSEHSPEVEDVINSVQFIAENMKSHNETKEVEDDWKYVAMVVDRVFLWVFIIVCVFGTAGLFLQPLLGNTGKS
# Compare with care: the assays were run in different laboratories. Numbers after ± are the reported error.
Structure (SMILES),tested on,test,system,setting,how to read,measurement,value
Cc1nn(-c2ccc(Cl)cc2)c2c1C(c1ccc([N+](=O)[O-])cc1)C(C#N)=C(N)O2 (stereo not shown),Vero E6,,,0.4 µM,,viability,87.3%
N#Cc1c(-c2ccc(Cl)cc2Cl)n(-c2nc(-c3ccc(Cl)cc3)c3c(NC(=O)c4ccccc4)nnc-3[nH]2)[nH]c1=O,A549/ATCC,NCI60 SRB,,5 log dose range,,CC50,> 100 µM
COP(=O)(OC)Oc1ccc([N+](=O)[O-])cc1Cl,"Ache (Rattus norvegicus, UniProt P37136)","enzyme activity, inhibitor, discontinuous Ellman","rat, postnatal day 12, rat skeletal muscle homogenate","15 min, 37 °C",,IC50,64 nM
Fc1ccc2[nH]cc(CNCC3(N4CCCC4)COC3)c2c1,U87,single-dose screen,,"30 µM, 48 h",baseline: DMSO control,viability,98.7%
Cc1nn(-c2ccc(Cl)cc2)c2c1C(c1ccc(O)cc1)C(C#N)=C(N)O2 (stereo not shown),Vero E6,,,1.6 µM,,viability,80.5%
CCOC(=O)c1c(-c2ccc(Cl)cc2Cl)n(-c2nc(-c3ccc(Cl)cc3)c3c(NC(=O)c4ccccc4)nnc-3[nH]2)[nH]c1=O,SR,SRB,,,,CC50,> 100 µM
CC(C)C[C@H](NC(=O)[C@@H](NC(=O)c1cc2ccccc2[nH]1)C(C)C)C(=O)N[C@H](C=O)C[C@@H]1CCCNC1=O,A549,MTT,,24 h,,CC50,> 100 µM
Cc1nn(-c2ccc(Cl)cc2)c2c1C(c1cccc(Cl)c1Cl)C(C#N)=C(N)O2 (stereo not shown),Vero E6,,,6.3 µM,,viability,66.5%
NC12CC3CC(F)(CC(C1)c1ccccc13)C2,Caco-2,,,,baseline: Papp B-A over Papp A-B,efflux ratio,0.7 ± 0.1
CC(C)[C@H](NC(=O)[C@H](CO)NC(=O)[C@H](CC(=O)O)NC(=O)[C@H](CCC(N)=O)NC(=O)CCNC(=O)Cc1cc(=O)oc2cc(N)ccc12)C(=O)N[C@@H](CC(=O)O)C(=O)N[C@@H](Cc1ccccc1)C(=O)N[C@@H](CO)C(=O)N[C@@H](CC(N)=O)C(=O)N[C@@H](Cc1c[nH]cn1)C(=O)N[C@@H](CC(=O)O)C(=O)N[C@@H](CCCCNc1ccc([N+](=O)[O-])cc1[N+](=O)[O-])C(N)=O,"Caspase-3 (CASP3, Homo sapiens, UniProt P42574)",substrate,,pH 7.2,,Km,13.3 µM
O=C(Nc1cccc(C2=NCCN2)c1)c1ccc(-c2ccc(C(=O)Nc3cccc(C4=NCCN4)c3)cc2)cc1,Trypanosoma brucei brucei,,"Lister 427, BALB/c mice","ip, 4 days",,lowest effective dose,~3 mg/kg
CC[C@H](C)[C@@H]1NC(=O)[C@H](CCC(=O)O)NC(=O)[C@@H]2CCCN2C(=O)[C@H](Cc2c[nH]cn2)NC(=O)[C@H](CCCNC(=N)N)NC(=O)[C@H](C(C)C)NC(=O)[C@H](CC(N)=O)NC(=O)[C@@H]2CSSC[C@H](NC(=O)CN)C(=O)N[C@@H](CSSC[C@@H](C(N)=O)NC1=O)C(=O)N[C@@H](CO)C(=O)N[C@@H](Cc1c[nH]cn1)C(=O)N1CCC[C@H]1C(=O)N[C@@H](C(C)C)C(=O)N2,"Nicotinic acetylcholine receptor alpha6/alpha3/beta4 (Homo sapiens, UniProt P30926+P32297+Q15825)","ion current, antagonist, two-electrode voltage clamp",Xenopus oocytes,"human, with: ACh 300 µM",,IC50,0.2 nM
Cc1ccc2[nH]cc(CNCC3(N4CCCC4)COC3)c2c1,HEK,single-dose screen,,"30 µM, 48 h, off-target toxicity",baseline: DMSO control,viability,100%
